Measured values from different studies.
Lines come from different studies, so protocols differ. “And” joins repeats or separate records; there may be more than shown.
Chain of UniProt Q9Y5T5 (whole entry, looked up): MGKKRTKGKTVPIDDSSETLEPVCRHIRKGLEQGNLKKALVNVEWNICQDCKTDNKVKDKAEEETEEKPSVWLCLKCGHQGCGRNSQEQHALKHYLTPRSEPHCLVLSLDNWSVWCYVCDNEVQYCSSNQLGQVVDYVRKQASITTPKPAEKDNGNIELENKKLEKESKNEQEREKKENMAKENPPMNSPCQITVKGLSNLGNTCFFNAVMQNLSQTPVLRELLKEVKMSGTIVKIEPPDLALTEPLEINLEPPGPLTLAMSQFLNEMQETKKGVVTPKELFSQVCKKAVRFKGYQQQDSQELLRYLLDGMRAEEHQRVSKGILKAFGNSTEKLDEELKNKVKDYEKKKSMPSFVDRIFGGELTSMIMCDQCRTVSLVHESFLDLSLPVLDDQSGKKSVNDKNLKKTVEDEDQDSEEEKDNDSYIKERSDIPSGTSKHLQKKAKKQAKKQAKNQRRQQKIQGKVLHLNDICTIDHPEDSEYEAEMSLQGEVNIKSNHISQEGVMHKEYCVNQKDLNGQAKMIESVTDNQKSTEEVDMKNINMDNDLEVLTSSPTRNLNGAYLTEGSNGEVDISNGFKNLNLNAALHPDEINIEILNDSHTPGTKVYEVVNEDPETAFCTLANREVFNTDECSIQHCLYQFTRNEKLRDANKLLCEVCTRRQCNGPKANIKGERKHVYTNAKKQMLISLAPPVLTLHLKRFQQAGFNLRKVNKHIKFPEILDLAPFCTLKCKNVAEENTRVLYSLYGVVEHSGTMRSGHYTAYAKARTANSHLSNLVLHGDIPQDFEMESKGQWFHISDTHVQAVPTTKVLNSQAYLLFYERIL

`CCn1cc(-c2cc(Cn3ccnc3)cc3c2CCN([C@H](c2cc(OC)ccn2)C2CC2)C3=O)c(C(F)(F)F)n1` has an EC50 of greater than 30 µM (SHP77; cell growth, inhibitor; 120 h).
`Cn1cc(-c2ccc(-c3cncc(Cl)c3N3CCC4(CCNC4=O)CC3)cc2)cn1`: “log2 fold change” -1.34 (COLO 205; gene expression, microarray, refers to: SLC9A1 mRNA; concentration not given, 6 h; reference: untreated cells).
For `O=C(O)CNC(=O)Cc1ccccc1`, the sarcomere length was 1.71 µm (ventricular cardiomyocytes, C57BL/6 mouse; dose not given, 0.3 s).
`Nc1nc(=O)c2c([nH]1)NCC(CNc1ccc(C(=O)N[C@@H](CCC(=O)O)C(=O)O)cc1)N2C=O` (mixture of isomers): “log2 fold change” -0.191 (binding, MIDAS equilibrium dialysis LC-MS; A2AR-BRIL thermostabilized; concentration not given; reference: no-protein control).
`CSc1cc(Oc2ccnc3[nH]c(=O)cnc23)ccc1NC(=O)Nc1cc(C(C)(C)C)nn1-c1ccccc1`: “phosphorylated ribosomal protein S6 level” 0.74 (patient-derived cell line; reverse phase protein array; human; 1 µM, 4 h; reference: DMSO).
`CCS(=O)(=O)c1nc(C2CC2)cc(C(F)(F)F)n1`: “cells with nuclear reporter” 94.4% and 98.7% (transportin-1/2; FUS nuclear import, high content imaging; HeLa Kyoto reporter; 50 µM, 2 h).
`NCC(O)CCC(N)C(=O)O` (racemic) — result for “log2 fold change”: -0.0925 (binding, MIDAS equilibrium dialysis LC-MS; A2AR-BRIL thermostabilized; concentration not given; reference: no-protein control).
With `COc1cnc2cccc(N3CCc4c(cc(Cn5ccnc5C)cc4-c4cn(C)nc4C(F)(F)F)C3=O)c2c1` the EC50 was greater than 30 µM (HEL 92.1.7; cell growth; 120 h).
`OC(CCN1CCCCC1)(c1ccccc1)C1CC2C=CC1C2` (stereo not shown): “EEG power, alpha, Fz-Cz” 7.1 µV² (resting-state EEG; healthy elderly humans; oral, 2 mg, eyes closed, LS mean).
`CCn1cc(-c2cc(Cn3ccoc3=N)cc3c2CCN([C@@H](C)c2cc(OC)ccn2)C3=O)c(C(F)(F)F)n1` gave an EC50 of 0.00578 µM (ZR-75-30; cell growth, inhibitor; 120 h).
Under “log2 fold change”, `O=c1[nH]c(=O)c2nc[nH]c2[nH]1` is recorded as 0.245 (binding, MIDAS equilibrium dialysis LC-MS; A2AR-BRIL thermostabilized; concentration not given; reference: no-protein control).
Under “cells with nuclear reporter”, `CC[S+]([O-])c1nc(-c2ccccc2)cc(C(F)(F)F)n1` (stereo not shown) is recorded as 95.9% and 94.5% (transportin-1/2; FUS nuclear import, high content imaging; HeLa Kyoto reporter; 0.05 µM, 2 h).
Under “log2 fold change”, `NC(CCS)C(=O)O` (racemic) is recorded as -0.00185 (binding, MIDAS equilibrium dialysis LC-MS; A2AR-BRIL thermostabilized; concentration not given; reference: no-protein control).
`N#Cc1ccc2c(c1)[C@H]1CCCN(C(=O)c3ccc4[nH]cnc4c3)[C@H]1C2` gave a fasting insulin of 14.5 mU/L (human, plasma; 360 mg, day 15).
For `CC(C)(CO)[C@@H](O)C(=O)NCCC(=O)O`, “log2 fold change” read -0.132 (binding, MIDAS equilibrium dialysis LC-MS; A2AR-BRIL thermostabilized; concentration not given; reference: no-protein control).
`O=C(O)Cc1nc2ccccc2o1` gave a Kd of greater than 1000 µM (Ubiquitin carboxyl-terminal hydrolase 16, ZnF-UBD domain (USP16, Homo sapiens, UniProt Q9Y5T5)).
